Measurements gathered from unrelated publications.
Parts stem from different laboratories: compare values within a part only.

Sample 1
Target: RNA binding protein fox-1 homolog 2, RRM domain, GST-SBP tag (RBFOX2, Homo sapiens, UniProt O43251-10, residues 100-194)
Method: RNA Bind-n-Seq
Molecule type: RNA
Medium: in vitro
Concentration: 365 nM
Notes: natural RNA segment, single round, ends assumed
Baseline: no-protein control
Reading: higher = stronger binding
Measurement: RBNS enrichment (R)
Target sequence (chain): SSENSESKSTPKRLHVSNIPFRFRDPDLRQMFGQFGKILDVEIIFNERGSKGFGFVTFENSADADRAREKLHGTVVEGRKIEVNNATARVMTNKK
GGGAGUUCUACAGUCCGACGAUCGUACAGAAACAGCCCCCGAAACCCACGCUUCUGAUUUACAGAAUCAGGUUCCUGUGAUGCAGGCUGACAGCCAGGGAGCACAACAGAUGCUGGACAAAGAUGAAAGCGACUGGAAUUCUCGGGUGCCAA: 0.373
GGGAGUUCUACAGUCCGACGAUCGUACUCUACUGGCAGGAUGCAGUUUUAAAUUUUAUGCCAUCAGUUAUUUAUUCUUGUUUAUUCAAAUGACUGCAAUAACAAUGAUUCAUUCAUUAAUGUUAAGGCUAAUAUGGAAUUCUCGGGUGCCAA: 0.349
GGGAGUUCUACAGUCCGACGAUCUUCUUAUGUAUUAUGAAAGUGAUAAGAAGACAAAUUAAGUGGGUAUAUUUUAUAAAAUAAAUUCAUGAAGAGAUUUGUGUUCUUCAGUUUAUUGUCACUACAGUAUUGAAUGGAAUUCUCGGGUGCCAA: 0.671
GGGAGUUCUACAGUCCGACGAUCAGCUCUCAGCACUGGGUGGGAGGGCGUUGGCUUGUCCAGAAUGGGGACGUGGGGCAGCCACCCCUGCCCAGCGAGAGCGCAGACACCGUGUGAGGGGACAGCAGCCCUUGUGGAAUUCUCGGGUGCCAA: 1.94
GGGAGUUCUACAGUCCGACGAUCGCAUGCACGUGCGCGUGUGUGCACACGCACACACACACACACACACACACACACACACACACACAAUGGGAGUGGGAUUAAGGUUUUCAUAAAUCUCAGCCAAUGGUCUUUGGAAUUCUCGGGUGCCAA: 7.06
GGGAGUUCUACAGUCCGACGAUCCAGAAUCGACCCUUCUCCCAUUGAUCCAUGUCUCCCGUGUCACCAUGGGCAUGGCAUGUGAAGCAAUGUCCUGCAGAUGGAUUACCACCUUUUAUUUCUGCCAGCUAACAUGGAAUUCUCGGGUGCCAA: 0.312
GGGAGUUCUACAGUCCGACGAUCAUGUUAGAGGCUCACACUUUAGCUUGAAAGGAGUUGAUGAAUUAAUUUUUUAAAGGGAACUUUUUACAUGACGUUUGGAAUAACAGCAUAUUGCUGACCAGUCAGUGUCAUGGAAUUCUCGGGUGCCAA: 1.23
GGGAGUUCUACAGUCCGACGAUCAUGAAUCUUUCAUAUAUAUAUGCAUAUAUAUACAUAUAUUGUAGAGUGUGAAUAUUCUUAUUUAAAGUAUAUUUUUACAUUAUGCAAAUGAACUUUAACAUUUUAGUCCAUGGAAUUCUCGGGUGCCAA: 0.402
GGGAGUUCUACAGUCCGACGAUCAAAAGGUGGUUAAAAUUGCCUUUAAUUGCCCAGUAGACUAAUUCCACAGUCAGAACAUGCAAACUUUUUUGAAGAAAUUACUUGAAUAAGUAGUUUUCAUGUUUUCAAUAUGGAAUUCUCGGGUGCCAA: 0.259
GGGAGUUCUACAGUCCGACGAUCUUCACAUUUGUAGAUUAAGCUGGAAUUAUAAUGAGAGCAAUAAGAACAAAUUUAUUUUGCUUACCACAGUGUUAUAGCUGGUUCUAGAAAUUUGAAGUCUUUAUAACUUAUGGAAUUCUCGGGUGCCAA: 0.309
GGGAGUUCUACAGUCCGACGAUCAUUCCCGUUUAUAUUUAUAUCUAUAUUGUUCUCAUGGUAAAUUGCCAAAAUAAAAGCAUUUUAUAUAUUGAGUUGGGGUGGGGGUGGGAUAGAUCUUCUGUGUCGUUGCAUGGAAUUCUCGGGUGCCAA: 2.78
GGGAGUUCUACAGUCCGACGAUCAAAUGCUACAAUGACUUCCUAUUAAAGGUUCAAUAUUUACACAUUCUUAUUGGUUGAUAUUACCACAUGAAAUAUUGCCAGACCAAGAUACCUAAACUCAUGAUGUCUGUUGGAAUUCUCGGGUGCCAA: 0.479

Sample 2
Target: Interferon regulatory factor 7, full length, phosphomimetic (IRF7, Homo sapiens, UniProt Q92985, residues 1-503, S471D/S472D/S475D/S476D/S477D/S483D/S484D/S487D)
Method: protein-binding microarray
Molecule type: double-stranded DNA, one strand shown
Medium: in vitro
Concentration: 2200 nM top
Notes: 60-bp whole probe
Added: salmon DNA 0.4 mg/ml
Baseline: random background probes
Reading: higher = stronger binding
Measurement: fitted relative affinity
Constant ends, left off below: GCCTAGCAC … GTCTTGATTCGCTTGACGCTGCTG
Construct (chain): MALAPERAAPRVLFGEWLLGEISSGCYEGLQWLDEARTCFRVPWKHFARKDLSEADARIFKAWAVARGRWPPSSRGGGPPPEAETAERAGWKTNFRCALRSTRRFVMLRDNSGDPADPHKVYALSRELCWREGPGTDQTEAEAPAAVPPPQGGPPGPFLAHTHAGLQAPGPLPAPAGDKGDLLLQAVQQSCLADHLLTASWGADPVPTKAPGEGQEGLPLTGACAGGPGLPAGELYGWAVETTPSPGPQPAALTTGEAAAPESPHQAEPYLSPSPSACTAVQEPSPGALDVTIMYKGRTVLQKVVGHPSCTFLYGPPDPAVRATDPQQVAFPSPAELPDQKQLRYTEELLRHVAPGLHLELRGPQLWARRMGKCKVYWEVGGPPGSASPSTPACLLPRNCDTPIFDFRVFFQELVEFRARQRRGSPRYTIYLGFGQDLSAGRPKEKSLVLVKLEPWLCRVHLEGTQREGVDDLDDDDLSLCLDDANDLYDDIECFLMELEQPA
ATGTCTTCCCCTCTCATTCCGTGCTAG: 2.26 z-score
TCCTATGTCATTTACATTTTGTGCTAG: 1.99 z-score
GACGGTATCGGTCTCGCGACGTGCTAG: 0.19 z-score
GGCGGTATCCTTCTCCTGACGTGCTAG: 0.427 z-score
GACGGTTTCCTTTCCCTGTCGTGCTAG: 5.36 z-score
GACGAACTGGGGACTAGAGACGTGCTA: -0.218 z-score
CAGAATCCAGCTCAGGTTGTGTGCTAG: 0.155 z-score
GACGATTTCGGGTATCGAGCCGTGCTA: 2.69 z-score
GACGGACTGGGTGTCGGGACGTGCTAG: -0.9 z-score
GATGATATCGGGTATCGAGACGTGCTA: 0.0931 z-score
TCATTTTTTCATATATAACTGTGCTAG: 1.56 z-score
TTAGGTCTCCATCTCCTTTAGTGCTAG: 1.31 z-score
TGAGGTATCGGGACTGGGTTAGTGCTA: -0.591 z-score
TTCTCAACCAGTTTTCTTTTCGTGCTA: 3.2 z-score
TAAGATATCGGGTTTCGATTAGTGCTA: 2.74 z-score
GACGATCTCAGTTTCGAGGCGTGCTAG: 2.53 z-score
TTAGATCTTAGACTGGATTAGTGCTAG: -0.372 z-score
TTAGGACTGGGCTTTCGGTTAGTGCTA: 2.35 z-score
TTAGGGTCCGGTTTCGGTTAGTGCTAG: 6.99 z-score
GACGGTATCCTTTACCTGACGTGCTAG: 0.661 z-score
TCAGTTCTAAATATCTTACTGTGCTAG: 0.611 z-score
GACGGTATCGGACTGCGGACGTGCTAG: -0.178 z-score
GATTATAAAATGTGTGTTTGGTGCTAG: 0.00816 z-score
TTAGGTAACGGGTATCGGTTAGTGCTA: -0.128 z-score

Sample 3
Target: Histone acetyltransferase KAT6A, winged helix 1, GST fusion (KAT6A, Homo sapiens, UniProt Q92794, residues 1-85)
Method: protein binding microarray
Molecule type: double-stranded DNA, one strand shown
Medium: in vitro
Concentration: not given
Notes: 8-mer, flanks averaged, mean of 2 arrays, mostly near background
Baseline: not given
Reading: higher = stronger binding
Measurement: E-score
Target sequence (chain): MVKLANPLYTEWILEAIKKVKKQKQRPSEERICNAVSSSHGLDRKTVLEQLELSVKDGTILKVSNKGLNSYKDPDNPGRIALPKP
GACCCCAA: -0.148
GAGCTCGA: -0.0737
CGGAACAA: 0.163
ATCATTTA: -0.0606
CTATGCCC: -0.0356
CCTCACCA: -0.241
CGTCTGAC: 0.0924
CCGCCATA: 0.178
GTTGAATA: 0.00956
GCACCCCC: -0.0299
AATGACCA: -0.187
ACTCGGAG: -0.082
AGCATACC: -0.116
CGGCCTAC: 0.184
AGGGCACT: -0.219
ATAATTCG: 0.0005
ACGCCCGC: 0.405
ACAACACC: -0.0719
AGTCTGTA: -0.103
AGGAATCG: 0.0706
GATGCCGA: 0.163
CTTGTGTC: -0.188
AGGGGTAA: -0.273
GAAGCACC: -0.107
ACATCTCA: -0.0707

Sample 4
Target: TAR DNA-binding protein 43, full length, His tag (TARDBP, Homo sapiens, UniProt Q13148, residues 1-414)
Method: RNA Bind-n-Seq
Molecule type: RNA
Medium: in vitro
Concentration: 20 nM
Notes: 6-mer, flanks averaged, single round
Added: 150 mM LiCl
Baseline: input library
Reading: higher = stronger binding
Measurement: 6-mer enrichment (R)
AAGGCU: 0.849
GAGGGC: 1.11
UUAUGC: 1.03
GCAACC: 0.871
UGCUUA: 0.973
GGGGCA: 1.2
UAUGCG: 1.1
ACACGG: 0.853
UUACUU: 0.994
CCCUCC: 1.2
CUGGCU: 0.894
UCCGGC: 0.902
CCCGUG: 1.04
AAAUGG: 1
GAGAGU: 1.12
GCUGGA: 0.973
GUGCAC: 0.995

For quick reference, copied from above (sample 3):
CTATGCCC: -0.0356
CCTCACCA: -0.241
CGTCTGAC: 0.0924
CCGCCATA: 0.178
GTTGAATA: 0.00956
GCACCCCC: -0.0299
AATGACCA: -0.187
